Published values from different studies.
± marks the error that the study gave.
P2RX7: P2X purinoceptor 7 (P2RX7, Homo sapiens, UniProt Q99572)
Sequence of UniProt Q99572 (whole entry, unmodified, looked up): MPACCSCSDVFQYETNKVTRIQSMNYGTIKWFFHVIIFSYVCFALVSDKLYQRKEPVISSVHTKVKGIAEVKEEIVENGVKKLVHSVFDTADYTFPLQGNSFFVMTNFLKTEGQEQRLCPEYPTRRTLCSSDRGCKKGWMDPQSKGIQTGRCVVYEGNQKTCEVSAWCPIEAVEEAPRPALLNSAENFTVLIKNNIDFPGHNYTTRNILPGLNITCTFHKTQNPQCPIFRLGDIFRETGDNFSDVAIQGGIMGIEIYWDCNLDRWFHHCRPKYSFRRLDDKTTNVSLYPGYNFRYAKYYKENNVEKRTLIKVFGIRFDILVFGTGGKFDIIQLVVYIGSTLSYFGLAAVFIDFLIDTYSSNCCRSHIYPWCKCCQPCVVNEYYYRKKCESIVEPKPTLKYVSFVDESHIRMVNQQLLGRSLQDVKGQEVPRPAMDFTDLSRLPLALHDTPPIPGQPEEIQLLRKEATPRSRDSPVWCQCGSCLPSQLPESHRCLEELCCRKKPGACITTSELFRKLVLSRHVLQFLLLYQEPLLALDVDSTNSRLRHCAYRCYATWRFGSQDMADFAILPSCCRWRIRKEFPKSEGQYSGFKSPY
HIPK3: Homeodomain-interacting protein kinase 3 (HIPK3, Homo sapiens, UniProt Q9H422)
Sequence of UniProt Q9H422 (whole entry, looked up): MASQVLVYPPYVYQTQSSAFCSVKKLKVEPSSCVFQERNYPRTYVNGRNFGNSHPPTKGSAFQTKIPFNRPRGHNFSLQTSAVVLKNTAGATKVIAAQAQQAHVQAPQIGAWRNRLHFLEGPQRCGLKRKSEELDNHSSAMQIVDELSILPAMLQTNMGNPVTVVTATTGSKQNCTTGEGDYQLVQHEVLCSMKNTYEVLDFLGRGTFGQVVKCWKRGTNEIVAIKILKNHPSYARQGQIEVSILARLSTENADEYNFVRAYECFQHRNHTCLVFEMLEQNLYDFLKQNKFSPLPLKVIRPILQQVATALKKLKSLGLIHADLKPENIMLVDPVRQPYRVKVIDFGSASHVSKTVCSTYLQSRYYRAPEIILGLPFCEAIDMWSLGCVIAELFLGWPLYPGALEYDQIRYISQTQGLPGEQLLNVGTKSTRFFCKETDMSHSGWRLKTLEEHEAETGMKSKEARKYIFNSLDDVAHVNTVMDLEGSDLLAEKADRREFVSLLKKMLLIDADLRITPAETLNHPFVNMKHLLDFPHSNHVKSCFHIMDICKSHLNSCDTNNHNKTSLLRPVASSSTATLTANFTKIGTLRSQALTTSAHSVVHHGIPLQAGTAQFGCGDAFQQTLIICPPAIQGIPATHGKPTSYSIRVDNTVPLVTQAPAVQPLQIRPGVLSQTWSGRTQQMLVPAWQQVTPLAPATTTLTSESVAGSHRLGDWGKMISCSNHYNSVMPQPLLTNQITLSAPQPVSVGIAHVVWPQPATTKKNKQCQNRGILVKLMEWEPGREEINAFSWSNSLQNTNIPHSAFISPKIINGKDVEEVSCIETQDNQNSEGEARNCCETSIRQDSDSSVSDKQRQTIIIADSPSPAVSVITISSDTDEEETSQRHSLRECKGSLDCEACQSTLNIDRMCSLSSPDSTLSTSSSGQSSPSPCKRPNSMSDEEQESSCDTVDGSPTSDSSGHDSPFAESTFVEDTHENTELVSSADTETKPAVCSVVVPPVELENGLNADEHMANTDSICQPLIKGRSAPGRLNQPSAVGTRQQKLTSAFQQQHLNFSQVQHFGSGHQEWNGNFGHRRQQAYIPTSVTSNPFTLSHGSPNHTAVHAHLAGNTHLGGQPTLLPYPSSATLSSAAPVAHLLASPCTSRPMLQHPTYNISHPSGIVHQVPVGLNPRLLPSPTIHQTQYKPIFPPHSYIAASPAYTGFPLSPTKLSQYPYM
CDK5 with p25: Cyclin-dependent kinase 5, with p25 (CDK5, Homo sapiens, UniProt Q00535)
Sequence of UniProt Q00535 (whole entry, looked up): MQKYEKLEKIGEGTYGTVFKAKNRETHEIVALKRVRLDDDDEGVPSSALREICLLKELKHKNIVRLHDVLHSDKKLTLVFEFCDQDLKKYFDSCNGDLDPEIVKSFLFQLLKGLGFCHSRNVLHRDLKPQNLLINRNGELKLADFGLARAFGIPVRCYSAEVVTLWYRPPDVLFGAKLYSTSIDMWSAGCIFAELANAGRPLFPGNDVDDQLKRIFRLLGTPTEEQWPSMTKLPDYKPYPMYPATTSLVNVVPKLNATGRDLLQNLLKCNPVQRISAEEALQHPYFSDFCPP
MAP3K3: Mitogen-activated protein kinase kinase kinase 3 (MAP3K3, Homo sapiens, UniProt Q99759)
Sequence of UniProt O75676 (whole entry, looked up): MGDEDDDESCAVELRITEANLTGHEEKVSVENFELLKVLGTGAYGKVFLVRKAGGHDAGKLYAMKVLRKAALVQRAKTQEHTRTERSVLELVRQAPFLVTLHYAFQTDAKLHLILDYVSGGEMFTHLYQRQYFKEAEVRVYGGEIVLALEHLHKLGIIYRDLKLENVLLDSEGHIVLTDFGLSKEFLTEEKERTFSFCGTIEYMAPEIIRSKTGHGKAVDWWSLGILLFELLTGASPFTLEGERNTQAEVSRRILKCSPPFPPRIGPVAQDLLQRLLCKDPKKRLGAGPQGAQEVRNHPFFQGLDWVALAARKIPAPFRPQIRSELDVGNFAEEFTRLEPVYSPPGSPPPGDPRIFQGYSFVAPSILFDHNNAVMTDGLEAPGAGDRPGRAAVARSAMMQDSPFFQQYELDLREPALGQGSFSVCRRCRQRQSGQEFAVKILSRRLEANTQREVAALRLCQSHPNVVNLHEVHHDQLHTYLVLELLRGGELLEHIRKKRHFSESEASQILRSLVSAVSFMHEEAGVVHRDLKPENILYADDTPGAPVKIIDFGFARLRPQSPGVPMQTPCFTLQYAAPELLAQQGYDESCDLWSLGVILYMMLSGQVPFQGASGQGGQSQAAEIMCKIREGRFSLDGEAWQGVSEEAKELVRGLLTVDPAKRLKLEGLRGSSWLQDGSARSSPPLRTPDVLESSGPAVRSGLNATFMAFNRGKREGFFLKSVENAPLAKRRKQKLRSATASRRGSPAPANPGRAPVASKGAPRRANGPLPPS
Sequence of UniProt Q99759 (whole entry, looked up): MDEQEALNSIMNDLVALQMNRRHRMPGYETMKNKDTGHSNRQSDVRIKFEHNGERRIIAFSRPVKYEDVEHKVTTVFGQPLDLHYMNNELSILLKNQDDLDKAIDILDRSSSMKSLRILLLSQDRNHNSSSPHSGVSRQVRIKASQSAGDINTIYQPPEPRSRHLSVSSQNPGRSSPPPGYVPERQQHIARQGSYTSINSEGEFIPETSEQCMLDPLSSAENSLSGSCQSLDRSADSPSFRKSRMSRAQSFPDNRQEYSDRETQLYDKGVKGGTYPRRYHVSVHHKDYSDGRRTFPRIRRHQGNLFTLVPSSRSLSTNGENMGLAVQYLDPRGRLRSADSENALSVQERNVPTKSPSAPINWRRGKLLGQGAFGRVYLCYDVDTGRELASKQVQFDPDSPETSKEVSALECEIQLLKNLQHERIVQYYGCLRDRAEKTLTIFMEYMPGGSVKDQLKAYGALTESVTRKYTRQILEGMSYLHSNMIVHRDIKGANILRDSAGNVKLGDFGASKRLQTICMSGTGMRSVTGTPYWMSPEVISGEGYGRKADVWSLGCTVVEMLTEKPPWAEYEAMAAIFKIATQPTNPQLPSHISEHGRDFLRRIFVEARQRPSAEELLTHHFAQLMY
Sequence of UniProt P45983 (whole entry, looked up): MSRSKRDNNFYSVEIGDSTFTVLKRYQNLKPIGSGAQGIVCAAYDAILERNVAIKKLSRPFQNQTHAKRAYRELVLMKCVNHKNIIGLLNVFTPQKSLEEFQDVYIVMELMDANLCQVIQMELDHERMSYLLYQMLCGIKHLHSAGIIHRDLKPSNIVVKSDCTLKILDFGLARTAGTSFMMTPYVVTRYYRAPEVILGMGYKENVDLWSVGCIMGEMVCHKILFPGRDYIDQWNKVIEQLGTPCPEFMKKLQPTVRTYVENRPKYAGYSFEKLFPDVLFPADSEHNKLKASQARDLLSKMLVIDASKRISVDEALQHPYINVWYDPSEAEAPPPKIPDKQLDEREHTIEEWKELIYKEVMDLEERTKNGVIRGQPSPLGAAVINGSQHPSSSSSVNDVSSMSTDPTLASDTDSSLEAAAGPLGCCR
Sequence of UniProt Q9NRH2 (whole entry, looked up): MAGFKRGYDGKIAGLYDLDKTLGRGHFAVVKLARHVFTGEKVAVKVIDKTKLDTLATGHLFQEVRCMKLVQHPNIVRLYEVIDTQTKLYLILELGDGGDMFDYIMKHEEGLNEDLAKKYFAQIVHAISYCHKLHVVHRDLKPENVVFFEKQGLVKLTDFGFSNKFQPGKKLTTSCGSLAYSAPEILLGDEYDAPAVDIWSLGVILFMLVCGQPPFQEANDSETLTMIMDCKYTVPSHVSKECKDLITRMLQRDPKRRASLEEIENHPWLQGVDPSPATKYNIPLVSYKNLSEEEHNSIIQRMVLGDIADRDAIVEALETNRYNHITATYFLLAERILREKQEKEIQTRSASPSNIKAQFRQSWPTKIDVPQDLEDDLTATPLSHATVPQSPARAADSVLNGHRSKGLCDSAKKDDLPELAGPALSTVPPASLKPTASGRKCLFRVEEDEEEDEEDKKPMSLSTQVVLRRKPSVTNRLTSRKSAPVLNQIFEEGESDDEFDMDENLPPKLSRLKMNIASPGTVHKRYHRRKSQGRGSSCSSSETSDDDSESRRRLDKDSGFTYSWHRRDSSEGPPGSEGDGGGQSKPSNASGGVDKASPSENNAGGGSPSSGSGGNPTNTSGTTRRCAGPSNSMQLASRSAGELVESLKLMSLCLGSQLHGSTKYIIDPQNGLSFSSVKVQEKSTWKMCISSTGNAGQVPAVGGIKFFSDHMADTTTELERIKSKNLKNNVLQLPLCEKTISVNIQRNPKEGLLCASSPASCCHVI

target | assay | system | setting | how to read | remaining activity | SMILES
P2RX7 | ATP-evoked current, inhibitor, whole-cell patch clamp | HEK293 transfected | 0.3 µM |  | 98.4% | C=CC[C@H]1c2ccc(OC)c(OC)c2CN2CCc3cc4c(cc3[C@@H]12)OCO4
HIPK3 | enzyme activity |  | 10 µM | reference: control | 18% | COc1cc(N2CCN(C)CC2)ccc1Nc1nc(N)n(C(=S)NCc2c(Cl)cccc2Cl)n1
FGFR2 | kinase activity |  | 1 µM |  | 10% | COc1cc(Nc2ncc3c(n2)-c2ccc(Cl)cc2C(c2c(F)cccc2OC)=NC3)ccc1C(=O)O
HIPK3 | kinase activity |  | 10 µM, together with: 10 µM ATP |  | 92% | COc1cc(F)ccc1-c1ncnc(Nc2cccc(C[S@](C)(=N)=O)c2)n1
Ribosomal protein S6 kinase alpha-4, C-terminal kinase domain (RPS6KA4, Homo sapiens, UniProt O75676) | enzyme activity |  | 10 µM | reference: control | 14% | CC(C)Oc1cc(N2CCN(C)CC2)ccc1Nc1nc(N)n(C(=O)NCc2ccccc2S(=O)(=O)C(C)C)n1
NT-3 growth factor receptor (NTRK3, Homo sapiens, UniProt Q16288) |  |  | 0.1 µM |  | 140% | C=CC(=O)N1CCC[C@@H](n2nc(-c3ccc(Oc4ccccc4)cc3)c3c(N)ncnc32)C1
SNF-related serine/threonine-protein kinase (SNRK, Homo sapiens, UniProt Q9NRH2) | enzyme activity |  | 10 µM |  | 96% | O=C(NC1CCC1)c1ccc2nc(-c3cccc(NS(=O)(=O)NCCN4CCCCC4)c3)cn2c1
CDK5 with p25 | kinase activity, inhibitor, HotSpot radiometric |  | 100 nM, together with: ATP 10 µM |  | 89.5 ± 1.4% | CC#CC(=O)N1CCC[C@H]1c1nc(-c2ccc(C(=O)Nc3ccccn3)cc2)c2c(N)nccn12
SAPK4(h) | kinase activity |  | 1 µM |  | 87% | O=C(O)c1ccc(Nc2ncc3c(n2)-c2ccc(Cl)cc2C(c2c(F)cccc2F)=NC3)cc1
P2RX7 | ATP-evoked current, inhibitor, whole-cell patch clamp | HEK293 transfected | 0.3 µM |  | 92.6% | COc1ccc2cc3[n+](cc2c1OC)CCc1cc2c(cc1-3)OCO2
Microtubule-associated serine/threonine-protein kinase 1 (MAST1, Homo sapiens, UniProt Q9Y2H9) | enzyme activity |  | 10 µM | reference: control | 30% | COc1cc(N2CCN(C)CC2)ccc1Nc1nc(N)n(C(=O)NCc2ccccc2S(=O)(=O)C(C)C)n1
MAP3K3 | kinase activity |  | 1 µM, human enzyme, together with: ATP 10 µM | reference: DMSO control | 108% | COc1cc(-c2cncc3c2CN(C)Cc2cc(N4CCNCC4)ccc2-3)cc(OC)c1OC
Peroxidasin homolog (PXDN, Homo sapiens, UniProt Q92626) | Amplex UltraRed |  | 60 µM | reference: control | 9.76% | NC/C(=C\F)COc1cccc(Cn2c(=S)[nH]c(=O)c3[nH]cnc32)c1
Mitogen-activated protein kinase 8 (MAPK8, Homo sapiens, UniProt P45983) | enzyme activity, inhibitor |  | 8.36e-05 µM, 6 h, unit not given, together with: GSH 10 mM pre-incubation | reference: vehicle | 1.05 | Cc1cc(NC(=O)c2cccc(NC(=O)/C=C/CN(C)C)c2)ccc1Nc1nccc(-c2cccnc2)n1
Ephrin type-A receptor 2 (EPHA2, Homo sapiens, UniProt P29317) | kinase activity, KinaseProfiler |  | 0.03 µM, species human | reference: control | 87% | Cc1cc(Nc2cc(N3CCN(C)CC3)nc(Sc3ccc(NC(=O)C4CC4)cc3)n2)[nH]n1
CDK5 with p25 | kinase activity, inhibitor, HotSpot radiometric |  | 100 nM, together with: ATP 10 µM |  | 69.4 ± 1.9% | COc1ccc(F)cc1C(=O)NCc1ccc(-c2nn([C@@H](C)C(F)(F)F)c(N)c2C(N)=O)cc1
Cell division cycle 7-related protein kinase, with DBF4 (CDC7, Homo sapiens, UniProt O00311) | kinase activity, radiometric 33PanQinase |  | 1 µM | reference: DMSO | 92% | CC(C)(C)c1nc(-c2cccc(NS(=O)(=O)c3c(F)cccc3F)c2F)c(-c2ccnc(N)n2)s1
Ribosomal protein S6 kinase alpha-4 (RPS6KA4, Homo sapiens, UniProt O75676) | kinase activity, inhibitor, HotSpot radiometric |  | 100 nM, together with: ATP 10 µM |  | 78.4 ± 1.4% | C=CC(=O)N1CCC[C@@H](n2nc(-c3ccc(Oc4ccccc4)cc3)c3c(N)ncnc32)C1
Serine/threonine-protein kinase D2 (PRKD2, Homo sapiens, UniProt Q9BZL6) | kinase activity, inhibitor |  | 1 µM | reference: untreated control | 92% | CNc1ncc2c(/C=C/C(=O)N3CCC(OC)CC3)nn(Cc3cccc(C(F)(F)F)c3)c2n1
MAP3K3 | kinase activity, inhibitor, HotSpot radiometric |  | 100 nM, together with: ATP 10 µM |  | 69.6 ± 1% | C=CC(=O)N1CCC([C@@H]2CCNc3c(C(N)=O)c(-c4ccc(Oc5ccccc5)cc4)nn32)CC1
Myeloperoxidase (MPO, Homo sapiens, UniProt P05164) |  |  | 10 µM, 0.1 h |  | 2.16% | COc1ccc(Cl)cc1-c1cc(=O)[nH]c(=S)n1CC(N)=O
